Measured values of several laboratories.
Each line is one published result; not all experiments were run side by side. ± gives the spread as reported.

Structure (SMILES)	test	test system	conditions	endpoint	value
CCCC[C@H](NC(=O)CNC(=O)CNC(=O)CN1CCN(CC(=O)O)CCN(CC(=O)O)CCN(CC(=O)O)CC1)C(=O)N[C@H]1CC(=O)NCCCC[C@@H](C(N)=O)NC(=O)[C@H](Cc2c[nH]c3ccccc23)NC(=O)[C@H](CCCNC(=N)N)NC(=O)[C@@H](Cc2ccccc2)NC(=O)[C@H](Cc2c[nH]cn2)NC1=O [lutetium-177 labelled]		C57 mouse, female, muscle	intravenous, 0.037 MBq, 4 h	tissue uptake	0.05 ± 0.02 %ID/g
N=C(N)NCCC[C@@H]1NC(=O)[C@H](CCCCNC(=O)CC[C@H](NC(=O)CC[C@H](NC(=O)CN2CCN(CC(=O)O)CCN(CC(=O)O)CCN(CC(=O)O)CC2)C(=O)N[C@@H](CCC(=O)NCCCC[C@@H]2NC(=O)[C@@H](Cc3ccccc3)NC(=O)[C@H](CC(=O)O)NC(=O)CNC(=O)[C@H](CCCNC(=N)N)NC2=O)C(=O)NCCCC[C@@H]2NC(=O)[C@@H](Cc3ccccc3)NC(=O)[C@H](CC(=O)O)NC(=O)CNC(=O)[C@H](CCCNC(=N)N)NC2=O)C(=O)NCCCC[C@@H]2NC(=O)[C@@H](Cc3ccccc3)NC(=O)[C@H](CC(=O)O)NC(=O)CNC(=O)[C@H](CCCNC(=N)N)NC2=O)NC(=O)[C@@H](Cc2ccccc2)NC(=O)[C@H](CC(=O)O)NC(=O)CNC1=O [indium-111 labelled]		female athymic nu/nu mice, U87MG tumour	intravenous, 111 kBq, 72 h	tissue uptake	3.16 ± 0.43 %ID/g
Cc1cc(-c2ccc(NC(=O)[C@H](CCCCNC(=O)CCOCCOCCC(=O)N[C@H](Cc3ccccc3)C(=O)N[C@H]3CSSC[C@@H](C(=O)N[C@H](C(=O)O)[C@@H](C)O)NC(=O)[C@H]([C@@H](C)O)NC(=O)[C@H](CCCCN)NC(=O)[C@@H](Cc4c[nH]c5ccccc45)NC(=O)[C@H](Cc4ccc(O)cc4)NC3=O)NC(=O)CN3CCN(CC(=O)O)CCN(CC(=O)O)CCN(CC(=O)O)CC3)c(C)c2)ccc1N=Nc1ccc2c(S(=O)(=O)O)cc(S(=O)(=O)O)c(N)c2c1O [lutetium-177 labelled]		patients with metastatic neuroendocrine tumours, kidney	kidney absorbed dose limit 23-29 Gy	maximum cumulative administered activity	12 to 15 GBq
COc1ccc2cc([C@H](C)C(=O)NCCCC[C@@H](NC(=O)[C@@H](Cc3ccccc3)NC(=O)[C@H](N)Cc3ccccc3)C(=O)O)ccc2c1	TEM	hydrogel 0.8 wt%		nanofiber width	26 ± 3 nm
CCCC[C@H](NC(=O)CCCCCCCNC(=O)CN1CCN(CC(=O)O)CCN(CC(=O)O)CC1)C(=O)N[C@H]1CC(=O)NCCCC[C@@H](C(N)=O)NC(=O)[C@H](Cc2c[nH]c3ccccc23)NC(=O)[C@H](CCCNC(=N)N)NC(=O)[C@@H](Cc2ccccc2)NC(=O)[C@H](Cc2c[nH]cn2)NC1=O [copper-64 labelled]		C57 mice, kidney	intravenous, 0.37 MBq, 4 h	tissue uptake	1.08 ± 0.22 %ID/g
CCCC[C@H](NC(=O)CNC(=O)CNC(=O)CN1CCN(CC(=O)O)CCN(CC(=O)O)CC1)C(=O)N[C@H]1CC(=O)NCCCC[C@@H](C(N)=O)NC(=O)[C@H](Cc2c[nH]c3ccccc23)NC(=O)[C@H](CCCNC(=N)N)NC(=O)[C@@H](Cc2ccccc2)NC(=O)[C@H](Cc2c[nH]cn2)NC1=O [technetium-99m labelled]		C57 mouse, liver	iv, 0.037 MBq, 0.5 h	tissue uptake	2.32 ± 0.2 %ID/g
C[C@H](NC(=O)CNC(=O)[C@H](CCC(=O)O)NC(=O)[C@H](CCC(=O)O)NC(=O)[C@H](CC(=O)O)NC(=O)[C@@H]1CCCN1C(=O)[C@H](Cc1ccccc1)NC(=O)[C@H](CS)NC(=O)[C@H](Cc1ccc(O)cc1)NC(=O)CCCNC(=O)CNC(=O)CNC(=O)[C@@H](C)NC(=O)CN)C(=O)N[C@@H](CS)C(=O)N[C@@H](Cc1ccc(O)cc1)C(N)=O [technetium-99m labelled]	paper chromatography	sealed vial	2 h, room temperature	radiochemical purity	93.7 ± 2.49%
N=C(N)NCCC[C@@H]1NC(=O)[C@H](CCCCNC(=O)CNC(=O)CNC(=O)CNC(=O)CC[C@H](NC(=O)CNC(=O)CNC(=O)CNC(=O)CN2CCN(CC(=O)O)CCN(CC(=O)O)CCN(CC(=O)O)CC2)C(=O)NCC(=O)NCC(=O)NCC(=O)NCCCC[C@@H]2NC(=O)[C@@H](Cc3ccccc3)NC(=O)[C@H](CC(=O)O)NC(=O)CNC(=O)[C@H](CCCNC(=N)N)NC2=O)NC(=O)[C@@H](Cc2ccccc2)NC(=O)[C@H](CC(=O)O)NC(=O)CNC1=O [indium-111 labelled]		female athymic nu/nu mice, spleen	intravenous, 111 kBq, 0.5 h	tissue uptake	1.63 ± 0.08 %ID/g
CC(C)C[C@@H]1NC(=O)[C@H]([C@@H](C)O)NC(=O)[C@H](Cc2ccccc2)NC(=O)CNC(=O)[C@H](Cc2c[nH]c3ccccc23)NC(=O)[C@H](Cc2c[nH]cn2)NC(=O)[C@H](C)NC(=O)[C@@H](NC(=O)[C@H](CCCCNC(=O)CCCCCN2C(=CC=C3CCCC(C=CC4=[N+](CCCCS(=O)(=O)[O-])c5ccc(S(=O)(=O)O)cc5C4(C)C)=C3Oc3ccc(S(=O)(=O)O)cc3)C(C)(C)c3cc(S(=O)(=O)O)ccc32)NC(=O)CN2CCN(CC(=O)O)CCN(CC(=O)O)CCN(CC(=O)O)CC2)CCCCNC(=O)C[C@@H](C(N)=O)NC1=O [gallium-68 labelled]		sodium acetate	pH 4	molar extinction coefficient	108000 ± 7920 M⁻¹ cm⁻¹
N=C(N)NCCC[C@@H]1NC(=O)[C@H](CCCCNC(=O)CNC(=O)CNC(=O)CNC(=O)CC[C@H](NC(=O)CNC(=O)CNC(=O)CNC(=O)CC[C@H](NC(=O)CN2CCN(CC(=O)O)CCN(CC(=O)O)CCN(CC(=O)O)CC2)C(=O)NCC(=O)NCC(=O)NCC(=O)N[C@@H](CCC(=O)NCC(=O)NCC(=O)NCC(=O)NCCCC[C@@H]2NC(=O)[C@@H](Cc3ccccc3)NC(=O)[C@H](CC(=O)O)NC(=O)CNC(=O)[C@H](CCCNC(=N)N)NC2=O)C(=O)NCC(=O)NCC(=O)NCC(=O)NCCCC[C@@H]2NC(=O)[C@@H](Cc3ccccc3)NC(=O)[C@H](CC(=O)O)NC(=O)CNC(=O)[C@H](CCCNC(=N)N)NC2=O)C(=O)NCC(=O)NCC(=O)NCC(=O)NCCCC[C@@H]2NC(=O)[C@@H](Cc3ccccc3)NC(=O)[C@H](CC(=O)O)NC(=O)CNC(=O)[C@H](CCCNC(=N)N)NC2=O)NC(=O)[C@@H](Cc2ccccc2)NC(=O)[C@H](CC(=O)O)NC(=O)CNC1=O [indium-111 labelled]		female athymic nu/nu mice, blood	intravenous, 4 h	tissue uptake	0.05 %ID/g
N=C(N)NCCC[C@@H]1NC(=O)[C@H](CCCCNC(=O)CC[C@H](NC(=O)COCCOCCOCCNC(=S)Nc2ccc(C[C@H]3CN(CC(=O)O)CCN(CC(=O)O)CCN3CC(=O)O)cc2)C(=O)NCCCC[C@@H]2NC(=O)[C@@H](Cc3ccc(O)cc3)NC(=O)[C@H](CC(=O)O)NC(=O)CNC(=O)[C@H](CCCNC(=N)N)NC2=O)NC(=O)[C@@H](Cc2ccc(O)cc2)NC(=O)[C@H](CC(=O)O)NC(=O)CNC1=O [gallium-68 labelled]	HPLC	PBS	4 h, room temperature	radiochemical purity	> 95%
